Assay results gathered from unrelated publications.
Protocols differ between the studies behind these lines.
SLC47A1: Multidrug and toxin extrusion protein 1 (SLC47A1, Homo sapiens, UniProt Q96FL8)
UniProt Q96FL8, sequence (whole entry, looked up): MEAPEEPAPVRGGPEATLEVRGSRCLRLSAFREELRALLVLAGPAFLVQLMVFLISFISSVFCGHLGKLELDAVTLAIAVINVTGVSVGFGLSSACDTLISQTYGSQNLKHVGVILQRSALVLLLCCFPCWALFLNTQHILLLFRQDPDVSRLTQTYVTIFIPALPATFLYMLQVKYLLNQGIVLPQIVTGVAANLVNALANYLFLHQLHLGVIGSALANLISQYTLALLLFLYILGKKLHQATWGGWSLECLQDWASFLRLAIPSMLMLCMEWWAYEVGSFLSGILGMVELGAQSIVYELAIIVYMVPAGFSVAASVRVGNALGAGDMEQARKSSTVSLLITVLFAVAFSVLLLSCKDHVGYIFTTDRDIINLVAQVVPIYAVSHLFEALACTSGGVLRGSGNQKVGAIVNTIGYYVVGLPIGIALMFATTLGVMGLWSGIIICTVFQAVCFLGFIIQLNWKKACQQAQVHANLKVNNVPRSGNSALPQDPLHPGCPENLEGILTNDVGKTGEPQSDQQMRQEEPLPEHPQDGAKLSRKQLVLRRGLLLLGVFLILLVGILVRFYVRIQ
CYP2D6: Cytochrome P450 2D6 (CYP2D6, Homo sapiens, UniProt P10635)
UniProt P10635, sequence (whole entry, looked up): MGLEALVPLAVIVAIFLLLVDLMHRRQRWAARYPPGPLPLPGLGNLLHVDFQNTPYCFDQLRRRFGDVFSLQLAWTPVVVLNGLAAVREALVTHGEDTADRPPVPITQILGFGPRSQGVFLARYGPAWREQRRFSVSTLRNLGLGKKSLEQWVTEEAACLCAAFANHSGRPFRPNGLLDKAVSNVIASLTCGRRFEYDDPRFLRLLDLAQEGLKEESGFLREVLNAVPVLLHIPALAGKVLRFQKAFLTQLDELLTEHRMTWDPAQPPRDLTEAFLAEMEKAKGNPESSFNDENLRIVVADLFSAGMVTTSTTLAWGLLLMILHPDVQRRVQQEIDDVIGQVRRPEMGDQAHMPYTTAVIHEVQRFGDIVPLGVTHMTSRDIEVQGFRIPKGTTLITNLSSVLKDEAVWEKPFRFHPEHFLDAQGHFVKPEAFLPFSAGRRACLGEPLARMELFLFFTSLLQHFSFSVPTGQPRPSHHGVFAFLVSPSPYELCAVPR
KCNH2: Voltage-gated inwardly rectifying potassium channel KCNH2 (KCNH2, Homo sapiens, UniProt Q12809)
UniProt Q12809, sequence (whole entry, looked up): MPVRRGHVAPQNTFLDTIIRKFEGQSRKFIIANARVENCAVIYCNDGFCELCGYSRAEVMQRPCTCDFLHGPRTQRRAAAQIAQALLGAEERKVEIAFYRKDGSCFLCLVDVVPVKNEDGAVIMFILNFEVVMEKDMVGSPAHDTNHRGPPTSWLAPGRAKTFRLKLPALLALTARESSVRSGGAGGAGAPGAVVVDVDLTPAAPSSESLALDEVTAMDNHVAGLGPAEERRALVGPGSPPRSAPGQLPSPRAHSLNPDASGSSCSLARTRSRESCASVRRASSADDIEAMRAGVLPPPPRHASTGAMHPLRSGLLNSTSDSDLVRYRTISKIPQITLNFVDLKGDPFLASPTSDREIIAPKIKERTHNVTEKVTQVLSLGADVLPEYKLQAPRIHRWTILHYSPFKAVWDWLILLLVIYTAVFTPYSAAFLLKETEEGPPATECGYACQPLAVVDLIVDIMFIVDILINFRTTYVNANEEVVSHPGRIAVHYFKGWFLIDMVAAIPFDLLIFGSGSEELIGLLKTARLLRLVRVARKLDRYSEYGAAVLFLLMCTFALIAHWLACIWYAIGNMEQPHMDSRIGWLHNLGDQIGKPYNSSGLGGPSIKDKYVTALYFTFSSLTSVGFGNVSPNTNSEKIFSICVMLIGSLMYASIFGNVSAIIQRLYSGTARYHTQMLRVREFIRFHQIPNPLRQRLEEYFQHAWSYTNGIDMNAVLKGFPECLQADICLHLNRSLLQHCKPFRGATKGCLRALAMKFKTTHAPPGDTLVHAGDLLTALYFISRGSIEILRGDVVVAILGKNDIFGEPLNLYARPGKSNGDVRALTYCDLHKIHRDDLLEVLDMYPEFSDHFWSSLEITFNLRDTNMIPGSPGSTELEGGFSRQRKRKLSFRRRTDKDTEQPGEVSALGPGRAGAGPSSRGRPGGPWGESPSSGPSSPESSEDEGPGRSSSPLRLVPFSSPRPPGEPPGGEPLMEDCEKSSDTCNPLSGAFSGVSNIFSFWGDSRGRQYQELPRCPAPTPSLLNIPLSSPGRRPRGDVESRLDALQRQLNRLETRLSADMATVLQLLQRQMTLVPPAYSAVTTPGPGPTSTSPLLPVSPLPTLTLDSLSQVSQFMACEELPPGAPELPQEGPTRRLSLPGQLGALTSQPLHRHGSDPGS
UniProt P0DJ06, sequence (whole entry, looked up): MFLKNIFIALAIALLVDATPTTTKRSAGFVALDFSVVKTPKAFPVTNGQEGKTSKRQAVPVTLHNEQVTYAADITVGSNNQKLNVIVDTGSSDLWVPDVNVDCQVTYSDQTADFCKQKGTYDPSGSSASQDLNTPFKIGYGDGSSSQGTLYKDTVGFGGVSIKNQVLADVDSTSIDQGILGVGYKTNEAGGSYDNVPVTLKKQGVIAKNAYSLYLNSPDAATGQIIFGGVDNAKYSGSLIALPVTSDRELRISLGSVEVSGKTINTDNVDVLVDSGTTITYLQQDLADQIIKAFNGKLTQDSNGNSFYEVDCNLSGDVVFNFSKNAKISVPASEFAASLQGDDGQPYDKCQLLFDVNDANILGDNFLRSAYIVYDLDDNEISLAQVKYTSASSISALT
UniProt P05177, sequence (whole entry, looked up): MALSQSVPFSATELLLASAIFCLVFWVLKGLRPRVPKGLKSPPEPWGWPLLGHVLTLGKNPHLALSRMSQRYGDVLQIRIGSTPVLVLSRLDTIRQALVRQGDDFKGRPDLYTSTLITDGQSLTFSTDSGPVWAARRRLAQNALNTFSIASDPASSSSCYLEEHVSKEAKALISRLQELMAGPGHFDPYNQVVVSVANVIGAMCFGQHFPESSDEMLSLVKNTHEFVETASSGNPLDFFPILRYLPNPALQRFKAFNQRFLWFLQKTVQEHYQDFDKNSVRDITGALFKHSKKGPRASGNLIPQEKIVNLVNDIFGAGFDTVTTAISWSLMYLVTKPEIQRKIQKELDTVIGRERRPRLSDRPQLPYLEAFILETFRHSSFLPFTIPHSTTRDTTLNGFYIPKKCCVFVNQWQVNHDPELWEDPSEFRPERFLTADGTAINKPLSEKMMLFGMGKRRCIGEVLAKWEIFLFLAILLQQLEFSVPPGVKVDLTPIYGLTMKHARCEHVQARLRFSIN
UniProt P08183, sequence (whole entry, looked up): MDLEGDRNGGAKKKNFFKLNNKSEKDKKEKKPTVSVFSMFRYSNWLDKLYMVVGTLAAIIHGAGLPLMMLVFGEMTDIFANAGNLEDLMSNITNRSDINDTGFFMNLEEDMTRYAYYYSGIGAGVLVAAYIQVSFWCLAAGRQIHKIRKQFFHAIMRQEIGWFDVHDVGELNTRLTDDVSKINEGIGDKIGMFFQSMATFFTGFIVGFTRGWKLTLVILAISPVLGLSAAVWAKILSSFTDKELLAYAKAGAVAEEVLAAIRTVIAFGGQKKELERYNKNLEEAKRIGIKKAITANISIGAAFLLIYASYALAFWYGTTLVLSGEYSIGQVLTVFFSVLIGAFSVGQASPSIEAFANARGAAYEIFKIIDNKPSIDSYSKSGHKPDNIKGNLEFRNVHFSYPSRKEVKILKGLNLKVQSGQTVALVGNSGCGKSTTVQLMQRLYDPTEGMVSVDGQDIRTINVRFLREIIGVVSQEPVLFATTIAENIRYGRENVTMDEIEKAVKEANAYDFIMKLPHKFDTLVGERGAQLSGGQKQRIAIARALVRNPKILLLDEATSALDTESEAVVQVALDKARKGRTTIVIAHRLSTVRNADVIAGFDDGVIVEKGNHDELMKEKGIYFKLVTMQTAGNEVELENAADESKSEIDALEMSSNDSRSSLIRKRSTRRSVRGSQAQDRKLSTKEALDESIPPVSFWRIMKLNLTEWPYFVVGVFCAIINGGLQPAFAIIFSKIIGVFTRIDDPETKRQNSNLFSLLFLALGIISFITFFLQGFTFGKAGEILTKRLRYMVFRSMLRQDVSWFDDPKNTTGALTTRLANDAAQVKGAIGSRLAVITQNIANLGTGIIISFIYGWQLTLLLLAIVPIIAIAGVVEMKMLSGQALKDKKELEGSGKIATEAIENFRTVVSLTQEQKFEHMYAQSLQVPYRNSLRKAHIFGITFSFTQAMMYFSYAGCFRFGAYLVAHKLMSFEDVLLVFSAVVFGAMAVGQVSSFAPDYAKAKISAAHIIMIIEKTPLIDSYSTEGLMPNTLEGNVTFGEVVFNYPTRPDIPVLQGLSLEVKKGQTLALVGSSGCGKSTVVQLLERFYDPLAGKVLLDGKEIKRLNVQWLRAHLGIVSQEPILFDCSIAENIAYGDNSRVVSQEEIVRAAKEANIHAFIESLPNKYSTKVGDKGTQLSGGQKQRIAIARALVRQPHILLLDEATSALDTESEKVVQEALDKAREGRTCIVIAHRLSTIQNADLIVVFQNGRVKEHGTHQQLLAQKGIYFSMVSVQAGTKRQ

CCOC(=O)c1c(CSc2ccccc2)n(C)c2cc(Br)c(O)c(CN(C)C)c12
inhibition (SLC47A1; transport, inhibitor; transiently transfected cells; 100 µM, 10 (unit not given), together with: metformin): 116%

CC(C)CC(=O)OC[C@H]1O[C@@](C#N)(c2ccc3c(N)ncnn23)[C@H](O)[C@@H]1O
recovery (ABCB1 (Homo sapiens, UniProt P08183); Caco-2 monolayer; 0.9 µM, 2 h, basolateral to apical, together with: zosuquidar 25 µM): 76.5%

CCN(CCO)CCCC(C)Nc1ccnc2cc(Cl)ccc12 (stereo not drawn)
inhibition (SLC47A1; transport, inhibitor; transiently transfected cells; 100 µM, 10 (unit not given), together with: metformin): 108%

CC1(C)C(/C=C(\Cl)C(F)(F)F)C1C(=O)OC(C#N)c1cccc(Oc2ccccc2)c1 (stereo not drawn)
enzyme contribution to CLint (human CYP2C9; IVIVE from expressed enzymes; human, liver, in vivo scaled; age-specific): 0.46%

COc1cc2c(c(OC)c1OC)-c1ccc(OC)c(=O)cc1[C@@H](NC(C)=O)CC2
inhibition (SLC47A1; transport, inhibitor; transiently transfected cells; 100 µM, 10 (unit not given), together with: metformin): 33.3%

O=C1Cc2cc(CCN3CCN(c4nsc5ccccc45)CC3)c(Cl)cc2N1
inhibition (CYP2D6; enzyme activity, inhibitor; human liver microsomes; 10 µM, pH 7.4, together with: dextromethorphan): 12%

N=c1c2c(-c3ccccc3)c(-c3ccccc3)n(Cc3ccccc3)c2ncn1[C@H]1CC[C@H](O)CC1
remaining compound (Cytochrome P450 1A2 (CYP1A2, Homo sapiens, UniProt P05177); recombinant CYP1A2; 25 min, pH 7.4, together with: NADPH): 99.5%

CCN(CC)CCCC(C)Nc1ccnc2cc(Cl)ccc12 (stereo not drawn)
inhibition (SLC47A1; transport, inhibitor; transiently transfected cells; 100 µM, 10 (unit not given), together with: metformin): 114%

CN(C(=O)n1cnc(-c2ccc[n+]([O-])c2)c1)C1CCCCC1
inhibition of binding (KCNH2; radioligand binding; 10 µM, human channel, together with: [3H]astemizole): 6%

CCCC[C@H]1C(=O)N(C)[C@@H](CCCC)C(=O)N[C@@H](CCCCNC(=O)CN2CCN(CC(=O)O)CCN(CC(=O)O)CC2)C(=O)N[C@H](C(=O)NCC(N)=O)CSCC(=O)N[C@@H](Cc2ccc(O)cc2)C(=O)N(C)[C@@H](C)C(=O)N[C@@H](CC(N)=O)C(=O)N2CCC[C@H]2C(=O)N[C@@H](Cc2c[nH]cn2)C(=O)N[C@@H](CCC(=O)O)C(=O)N2C[C@H](O)C[C@H]2C(=O)N[C@@H](Cc2c[nH]c3ccccc23)C(=O)N[C@@H](CO)C(=O)N[C@@H](Cc2cn(CC(=O)O)c3ccccc23)C(=O)N1C [gallium-68 labelled]
tumour uptake (CD274 (Homo sapiens, UniProt Q9NZQ7); PET; hu-CD34+ NOG-EXL mouse, U-87 MG xenograft; day 7, together with: 10 mg/kg anti-hPD-L1 antibody): 1.68 %ID/g

CN(CC(=O)O)C(=O)CN
uptake (SLC15A1 (Homo sapiens, UniProt P46059); inhibitor; Caco-2; 10 mM, together with: oseltamivir): decreased

NC(=O)c1nc(F)c[nH]c1=O
inhibition (SLC47A1; transport, inhibitor; transiently transfected cells; 100 µM, 10 (unit not given), together with: metformin): 19.1%

O=c1n(CCCN2CCN(c3cccc(Cl)c3)CC2)nc2ccccn12
IC50 (bile salt export pump (Macaca fascicularis, UniProt D2CFL3); inhibitor; 1 h): 134 µM

Cc1c(COC(=O)[C@@H]2[C@H](/C=C(\Cl)C(F)(F)F)C2(C)C)cccc1-c1ccccc1 (racemic)
enzyme contribution to CLint (human CYP2C9; IVIVE from expressed enzymes; human, liver, in vivo scaled; 0.1 µM, age-specific): 19.2%

Cn1nccc1[C@]1(CNC(=O)c2ccc(F)c(F)c2-c2ccc(C(F)(F)F)cc2)NC(=O)NC1=O
IC50 (CYP2D6; human liver microsomes; together with: dextromethorphan; no inhibition up to value): > 20 µM

C[C@H](NC(=O)[C@H](Cc1cnc[nH]1)NC(=O)[C@H](CO)NC(=O)[C@@H](N)CC(=O)O)C(=O)N[C@@H](CCCCN)C(=O)N[C@@H](CCCNC(=N)N)C(=O)N[C@@H](Cc1cnc[nH]1)C(=O)N[C@@H](Cc1cnc[nH]1)C(=O)NCC(=O)N[C@@H](Cc1ccc(O)cc1)C(=O)N[C@@H](CCCCN)C(=O)N[C@@H](CCCNC(=N)N)C(=O)N[C@@H](CCCCN)C(=O)N[C@@H](Cc1ccccc1)C(=O)N[C@@H](Cc1cnc[nH]1)C(=O)N[C@@H](CCC(=O)O)C(=O)N[C@@H](CCCCN)C(=O)N[C@@H](Cc1cnc[nH]1)C(=O)N[C@@H](Cc1cnc[nH]1)C(=O)N[C@@H](CO)C(=O)N[C@@H](Cc1cnc[nH]1)C(=O)N[C@@H](CCCNC(=N)N)C(=O)NCC(=O)N[C@@H](Cc1ccc(O)cc1)C(=O)O
intact peptide remaining (Secreted aspartic protease 2 (SAP2, Candida albicans, UniProt P0DJ06); proteolytic degradation, gel densitometry; 150 µg/mL, 2 h, pH 7.4, together with: SAP2 0.1 µg/mL): 50.4%

COc1cc2nc(N3CCN(C(=O)c4ccco4)CC3)nc(N)c2cc1OC
inhibition (SLC47A1; transport, inhibitor; transiently transfected cells; 100 µM, 10 (unit not given), together with: metformin): 87.8%

COc1cc(N2CC[C@@]3(O)C(=O)c4cc(C)c(C)cc4N=C23)ccn1
hERG inhibition (KCNH2; patch clamp; CHO; 10 µM): negative

Some of these lines once more:
CC1(C)C(/C=C(\Cl)C(F)(F)F)C1C(=O)OC(C#N)c1cccc(Oc2ccccc2)c1 (stereo not drawn)
enzyme contribution to CLint (human CYP2C9; IVIVE from expressed enzymes; human, liver, in vivo scaled; age-specific): 0.46%

COc1cc2c(c(OC)c1OC)-c1ccc(OC)c(=O)cc1[C@@H](NC(C)=O)CC2
inhibition (SLC47A1; transport, inhibitor; transiently transfected cells; 100 µM, 10 (unit not given), together with: metformin): 33.3%
